Results of several laboratories.
Values joined by “and” are separate records of one study, mostly repeats; a detail may differ.

For `C=CC(=O)Nc1cccc(Cn2ncc3cnc(Nc4cnn(CCOC)c4)nc32)c1`, the binding was 43% (human YES; KINOMEscan; 100 nM).
Under “normalised protein abundance”, `COc1cc2c(NC3CCN(C(C)C)CC3)cc(N3CCOCC3)nc2cc1OCCCN1CCCC1` is recorded as -0.0392 and -0.0298 and -0.0812 and -0.0306 and -0.0689 and -0.0778 and -0.0297 and -0.0309 (TMT quantitative proteomics, measured: MDH1 (cytoplasmic); 5xFAD mice, hippocampus; dose not given).
`Nc1ncc(-c2cc(-c3cnn(CC(F)(F)F)c3)ncc2F)nc1C(=O)NC1CNCC(F)C1` (stereo not drawn) has a remaining binding of 60% (PRKD1; KINOMEscan; 1 µM; baseline: DMSO control).
Under “log2 fold change”, `c1ccc(-c2n[nH]cc2-c2ccnc3ccccc23)nc1` is recorded as -0.24 (SKY1 (Candida albicans); kinase binding, MIB/MS competition; Candida albicans lysate; 10 µM; baseline: DMSO).
With `COc1ccccc1-c1ccncc1C(=O)Nc1nnc(OCc2ccc(Cl)cc2)s1` the colony count was 13 and 5.5 and 13.5 (MDA-MB-436; 12 µM).
Under “log2 fold change”, `COC1CN([C@H]2CC[C@H]([C@@]3(C)Oc4c(Cl)cc(C(=O)NCc5c(SC)cc(C)[nH]c5=O)c(C)c4O3)CC2)C1` is recorded as 1.33 (RNA-seq, measured: CFAP54; human, whole blood; dose not given, 24 h; baseline: pretreatment baseline).
For `Cc1ncsc1-c1ccc(C(C)NC(=O)C2CC(O)CN2C(=O)C(NC(=O)CCCCCCCCCCN2CCCC(Nc3ncc(Cl)c(Nc4ccccc4S(=O)(=O)C(C)C)n3)C2)C(C)(C)C)cc1` (stereo not drawn), “log2 fold change” read -1.09 (22Rv1; RNA-seq, measured: TAF12 mRNA; concentration not given; baseline: DMSO).
`CCN(CC)CC(=O)Nc1cccc(-n2cc(-c3ccc4ccc(-c5cn(-c6cccc(NC(=O)CN(CC)CC)c6)nn5)cc4c3)nn2)c1` gave a fold regulation of -1.19 (RCC4; PCR angiogenesis array, measured: FGFR3; 5 x IC50, 4 h, normoxia; baseline: untreated).
`C=CC(=O)N1[C@@H](c2ccc3c(c2)OCO3)c2[nH]c3ccccc3c2C[C@H]1C(=O)N1CCN(C)CC1` gave a relative co-enrichment of 150% (human cyclin E1 N112C-3xFLAG:CDK2; co-IP with TMT proteomics, measured: HNRNPA2B1; concentration not given, P22626; baseline: wild type DMSO).

Repeated from above:
With `COc1ccccc1-c1ccncc1C(=O)Nc1nnc(OCc2ccc(Cl)cc2)s1` the colony count was 13 and 5.5 and 13.5 (MDA-MB-436; 12 µM).
